Results from different studies.
Each line is one published result; not all experiments were run side by side. Numbers after ± are the reported error.
PPARG ligand-binding domain: Peroxisome proliferator-activated receptor gamma, ligand-binding domain (PPARG, Homo sapiens, UniProt P37231)
Chain of UniProt P37231 (whole entry, looked up): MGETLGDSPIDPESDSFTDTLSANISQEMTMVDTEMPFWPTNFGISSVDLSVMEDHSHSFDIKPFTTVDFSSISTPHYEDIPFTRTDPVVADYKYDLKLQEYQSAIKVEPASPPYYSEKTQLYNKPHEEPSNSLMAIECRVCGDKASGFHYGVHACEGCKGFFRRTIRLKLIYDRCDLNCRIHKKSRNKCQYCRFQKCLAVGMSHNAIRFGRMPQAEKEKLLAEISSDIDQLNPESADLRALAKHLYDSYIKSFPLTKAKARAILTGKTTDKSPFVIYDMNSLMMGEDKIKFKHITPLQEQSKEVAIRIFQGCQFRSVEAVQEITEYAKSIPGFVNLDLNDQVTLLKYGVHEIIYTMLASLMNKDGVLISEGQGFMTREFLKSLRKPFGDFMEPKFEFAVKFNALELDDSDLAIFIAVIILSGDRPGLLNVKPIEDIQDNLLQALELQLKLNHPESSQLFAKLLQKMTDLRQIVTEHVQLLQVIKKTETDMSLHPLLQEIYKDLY
Rhomboid protease AarA: Rhomboid protease AarA (Providencia stuartii, UniProt P46116)
Chain of UniProt P46116 (whole entry, looked up): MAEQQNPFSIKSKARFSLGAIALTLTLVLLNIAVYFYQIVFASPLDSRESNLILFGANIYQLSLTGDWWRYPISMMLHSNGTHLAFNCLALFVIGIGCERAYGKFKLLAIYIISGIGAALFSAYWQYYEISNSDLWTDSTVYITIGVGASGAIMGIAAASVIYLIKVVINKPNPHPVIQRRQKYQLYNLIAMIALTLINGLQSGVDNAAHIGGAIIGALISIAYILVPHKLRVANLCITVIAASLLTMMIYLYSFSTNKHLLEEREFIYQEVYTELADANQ
PPARG: Peroxisome proliferator-activated receptor gamma (PPARG, Homo sapiens, UniProt P37231)
Chain of UniProt Q13976 (whole entry, looked up): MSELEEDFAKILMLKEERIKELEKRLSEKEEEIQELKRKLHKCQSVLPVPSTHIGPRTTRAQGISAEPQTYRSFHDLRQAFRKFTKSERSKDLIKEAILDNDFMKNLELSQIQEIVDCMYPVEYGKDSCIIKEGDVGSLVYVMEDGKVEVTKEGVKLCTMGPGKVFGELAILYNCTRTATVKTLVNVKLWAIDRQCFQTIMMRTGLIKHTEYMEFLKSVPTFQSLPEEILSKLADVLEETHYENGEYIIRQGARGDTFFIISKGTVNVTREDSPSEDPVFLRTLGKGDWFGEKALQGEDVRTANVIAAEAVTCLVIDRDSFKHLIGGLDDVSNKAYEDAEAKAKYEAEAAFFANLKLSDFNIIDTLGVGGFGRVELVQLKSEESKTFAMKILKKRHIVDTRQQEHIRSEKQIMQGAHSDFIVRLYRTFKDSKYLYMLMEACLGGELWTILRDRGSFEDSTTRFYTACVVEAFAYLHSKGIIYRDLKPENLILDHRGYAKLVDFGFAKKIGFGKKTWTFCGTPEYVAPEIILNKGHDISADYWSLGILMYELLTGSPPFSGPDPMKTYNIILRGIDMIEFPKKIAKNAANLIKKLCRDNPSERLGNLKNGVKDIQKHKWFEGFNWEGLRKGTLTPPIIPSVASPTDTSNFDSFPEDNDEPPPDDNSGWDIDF
Chain of UniProt P06401 (whole entry, looked up): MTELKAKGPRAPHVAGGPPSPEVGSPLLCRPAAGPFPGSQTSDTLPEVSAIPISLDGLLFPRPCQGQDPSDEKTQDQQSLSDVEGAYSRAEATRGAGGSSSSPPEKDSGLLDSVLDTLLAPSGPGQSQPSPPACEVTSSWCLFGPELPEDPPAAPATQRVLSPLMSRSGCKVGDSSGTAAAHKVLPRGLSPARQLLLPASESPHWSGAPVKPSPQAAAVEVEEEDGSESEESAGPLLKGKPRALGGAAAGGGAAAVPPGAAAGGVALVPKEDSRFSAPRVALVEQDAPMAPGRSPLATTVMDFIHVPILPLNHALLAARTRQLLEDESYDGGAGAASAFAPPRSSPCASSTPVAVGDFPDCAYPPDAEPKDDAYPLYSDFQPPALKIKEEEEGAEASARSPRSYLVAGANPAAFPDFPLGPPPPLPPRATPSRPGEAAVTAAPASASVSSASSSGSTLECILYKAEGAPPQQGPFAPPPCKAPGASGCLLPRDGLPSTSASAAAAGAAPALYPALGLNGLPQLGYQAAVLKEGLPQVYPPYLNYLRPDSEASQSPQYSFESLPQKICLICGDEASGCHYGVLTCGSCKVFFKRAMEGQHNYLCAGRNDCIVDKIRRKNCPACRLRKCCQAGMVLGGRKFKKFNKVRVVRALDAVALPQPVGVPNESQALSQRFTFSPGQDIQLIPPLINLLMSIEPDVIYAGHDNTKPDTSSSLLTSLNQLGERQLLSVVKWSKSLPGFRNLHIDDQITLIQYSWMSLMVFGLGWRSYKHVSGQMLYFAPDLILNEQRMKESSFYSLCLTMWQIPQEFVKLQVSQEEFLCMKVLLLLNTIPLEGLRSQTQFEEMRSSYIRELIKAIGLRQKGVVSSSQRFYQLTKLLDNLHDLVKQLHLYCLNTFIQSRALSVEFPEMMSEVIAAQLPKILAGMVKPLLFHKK
Chain of UniProt Q9UQL6 (whole entry, looked up): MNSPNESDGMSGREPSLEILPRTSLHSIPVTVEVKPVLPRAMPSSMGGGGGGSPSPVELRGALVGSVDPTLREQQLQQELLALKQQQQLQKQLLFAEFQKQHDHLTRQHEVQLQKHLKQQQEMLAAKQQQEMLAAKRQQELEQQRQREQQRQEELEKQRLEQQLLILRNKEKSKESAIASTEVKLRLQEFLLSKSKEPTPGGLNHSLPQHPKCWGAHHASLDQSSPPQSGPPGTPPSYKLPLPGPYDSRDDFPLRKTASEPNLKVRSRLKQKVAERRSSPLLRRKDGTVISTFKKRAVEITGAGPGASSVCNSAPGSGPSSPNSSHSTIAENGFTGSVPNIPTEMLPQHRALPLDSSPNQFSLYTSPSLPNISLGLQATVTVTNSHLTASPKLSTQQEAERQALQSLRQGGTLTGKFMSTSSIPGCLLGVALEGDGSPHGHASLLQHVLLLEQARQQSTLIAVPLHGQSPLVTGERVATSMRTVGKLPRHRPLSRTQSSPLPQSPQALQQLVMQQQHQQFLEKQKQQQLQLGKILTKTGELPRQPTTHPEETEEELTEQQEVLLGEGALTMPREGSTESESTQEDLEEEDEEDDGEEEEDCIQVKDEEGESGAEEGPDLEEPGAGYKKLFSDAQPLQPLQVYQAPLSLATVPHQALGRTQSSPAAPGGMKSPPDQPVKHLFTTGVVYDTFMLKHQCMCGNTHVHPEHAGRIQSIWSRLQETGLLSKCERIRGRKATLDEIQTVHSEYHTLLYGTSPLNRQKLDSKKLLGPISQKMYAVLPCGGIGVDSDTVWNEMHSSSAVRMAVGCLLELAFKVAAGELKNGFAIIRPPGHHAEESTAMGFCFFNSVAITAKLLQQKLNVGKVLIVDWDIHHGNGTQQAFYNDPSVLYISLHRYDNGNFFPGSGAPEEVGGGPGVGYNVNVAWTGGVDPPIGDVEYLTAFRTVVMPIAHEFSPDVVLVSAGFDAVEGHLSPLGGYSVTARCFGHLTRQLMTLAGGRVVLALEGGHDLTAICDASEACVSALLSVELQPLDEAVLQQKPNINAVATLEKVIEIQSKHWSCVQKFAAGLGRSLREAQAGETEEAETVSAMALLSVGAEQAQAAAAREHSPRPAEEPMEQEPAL
Chain of UniProt P15735 (whole entry, looked up): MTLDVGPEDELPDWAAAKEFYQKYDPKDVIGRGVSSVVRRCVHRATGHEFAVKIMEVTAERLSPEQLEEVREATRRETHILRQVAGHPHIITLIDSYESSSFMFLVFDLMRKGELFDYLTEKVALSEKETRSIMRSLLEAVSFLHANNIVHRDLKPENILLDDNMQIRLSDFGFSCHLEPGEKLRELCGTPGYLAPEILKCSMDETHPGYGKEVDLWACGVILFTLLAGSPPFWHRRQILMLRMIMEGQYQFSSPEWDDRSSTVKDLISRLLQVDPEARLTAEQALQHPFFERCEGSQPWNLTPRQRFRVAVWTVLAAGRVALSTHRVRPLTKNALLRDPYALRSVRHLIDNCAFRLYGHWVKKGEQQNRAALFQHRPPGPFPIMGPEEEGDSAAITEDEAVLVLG
Chain of UniProt P0A988 (whole entry, looked up): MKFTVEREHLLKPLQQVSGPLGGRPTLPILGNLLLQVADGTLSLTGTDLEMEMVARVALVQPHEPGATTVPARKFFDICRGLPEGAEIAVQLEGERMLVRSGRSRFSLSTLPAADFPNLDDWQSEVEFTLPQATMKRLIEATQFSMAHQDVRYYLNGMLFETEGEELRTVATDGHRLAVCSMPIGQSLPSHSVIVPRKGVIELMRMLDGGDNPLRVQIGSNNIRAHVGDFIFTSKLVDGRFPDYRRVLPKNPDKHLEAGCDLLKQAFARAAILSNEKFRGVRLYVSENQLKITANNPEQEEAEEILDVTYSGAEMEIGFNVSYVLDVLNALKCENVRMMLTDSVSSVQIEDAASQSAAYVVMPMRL
Chain of UniProt Q13547 (whole entry, looked up): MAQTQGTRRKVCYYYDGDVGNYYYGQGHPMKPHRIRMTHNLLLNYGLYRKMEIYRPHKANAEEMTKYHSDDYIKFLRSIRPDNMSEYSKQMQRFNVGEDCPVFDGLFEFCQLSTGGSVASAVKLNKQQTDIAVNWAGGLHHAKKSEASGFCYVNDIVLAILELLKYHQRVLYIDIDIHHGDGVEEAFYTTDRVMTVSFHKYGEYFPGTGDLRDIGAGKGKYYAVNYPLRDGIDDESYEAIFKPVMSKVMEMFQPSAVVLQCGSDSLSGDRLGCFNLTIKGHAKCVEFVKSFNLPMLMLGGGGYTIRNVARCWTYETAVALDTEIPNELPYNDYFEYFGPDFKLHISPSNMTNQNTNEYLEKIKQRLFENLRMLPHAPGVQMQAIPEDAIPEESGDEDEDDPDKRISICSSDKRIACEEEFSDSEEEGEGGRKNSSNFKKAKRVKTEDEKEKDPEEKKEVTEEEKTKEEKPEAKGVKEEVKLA

Cc1nc2c(F)cc(-c3nc(Nc4ccc(C(=O)NCCCCCCCC(=O)NO)cc4)ncc3F)cc2n1C(C)C has an IC50 of 11 nM (Histone deacetylase 1 (HDAC1, Homo sapiens, UniProt Q13547); enzyme activity, inhibitor).
With CCn1c(C)c(Cc2cccc(OC(C)(C)C(=O)O)c2)c2ccc(C(=O)N[C@@H](C)c3cccc(C(C)(C)C)c3)cc21 the IC50 was 970 nM (PPARG ligand-binding domain; reporter gene, luciferase reporter; HEK293T, Gal4-PPARγ LBD).
The IC50 of COc1ccc(C(=O)Nc2ccc(Nc3cc(C)nc(N4CCCC4)n3)cc2)cc1 is reported as 58900 ± 2500 nM (Beta sliding clamp (Escherichia coli, UniProt P0A988)).
For O=C(CCc1ccc(CNC(C(=O)OC2CCCC2)C2CCCCC2)cn1)NO (centres unmarked), the IC50 was > 10000 nM (Histone deacetylase 5 (HDAC5, Homo sapiens, UniProt Q9UQL6); enzyme activity, inhibitor).
O=C(Nc1cccc2c1OCC2)C(C(F)(F)F)C(F)(F)F has an IC50 of 7300 nM (Rhomboid protease AarA; enzyme activity, inhibitor, fluorescence).
With Cc1c(Cc2ccc(Cl)c(OC(C)C(=O)O)c2)c2ccc(C(=O)NC(C)c3ccc(C(C)(C)C)cc3)cc2n1CC1CC1 (centres unmarked) the IC50 was 1.77 nM (PPARG; ligand displacement, TR-FRET).
The IC50 of C[C@@H]1Cc2c([nH]c3ccccc23)[C@@H](c2c(F)cc(/C=C/C(=O)O)cc2F)N1C12CC(C1)C2 is reported as 655 nM (Progesterone receptor (PGR, Homo sapiens, UniProt P06401); PR receptor activity, antagonist, cell-based).
For CC(C)C[C@H](NC(=O)[C@H](CC(C)C)NC(=O)CNC(=O)[C@H](C)NC(=O)[C@H](C)NC(=O)[C@H](CCCNC(=N)N)NC(=O)CNC(=O)CCCCNC(=O)CCCCNC(=O)CCCCNC(=O)[C@H](CCCCN)NC(=O)[C@H](Cc1ccc(O)cc1)NC(=O)[C@@H](N)Cc1cn(C)c2ccccc12)C(N)=O, the IC50 was 545 nM (Neuropeptides B/W receptor type 1 (NPBWR1, Homo sapiens, UniProt P48145); calcium signal, antagonist).
The IC50 of COc1ccc(Nc2cc(NC3CC3)n3ncc(C#N)c3n2)cc1 is reported as > 10000 nM (Phosphorylase b kinase gamma catalytic chain, liver/testis isoform (PHKG2, Homo sapiens, UniProt P15735); inhibitor).
With Cc1c(Cc2ccc(OC(C)C(=O)O)cc2)c2ccc(C(=O)N[C@@H](C)c3ccc(C(C)C)cc3)cc2n1C (some centres unmarked) the IC50 was 16000 nM (PPARG ligand-binding domain; reporter gene, luciferase reporter; HEK293T, Gal4-PPARγ LBD).
With CC1C(=O)N(S(=O)(=O)c2ccc(C#N)cc2)C1c1ccccc1 (racemic) the IC50 was 48000 nM (Rhomboid protease AarA; enzyme activity, inhibitor, fluorescence).
The IC50 of CC[C@H](C)[C@@H]1NC(=O)[C@H](Cc2ccc(O)cc2)NC(=O)CSCCNC(=O)[C@H](CC(N)=O)NC(=O)[C@H](Cc2c[nH]cn2)NC(=O)[C@H](Cc2ccc(O)cc2)NC(=O)[C@H](CC(=O)O)NC(=O)[C@H](Cc2ccc(O)cc2)NC(=O)[C@H](CC(C)C)NC(=O)[C@H](CCCNC(=N)N)NC1=O is reported as 42.7 ± 9.6 nM (Melanoma-associated antigen 4, MAGE homology domain (Homo sapiens, UniProt P43358); binding, inhibitor, TR-FRET displacement; with: Alexa647-MTP-1).
With Cc1c(Cc2cccc(OC(C)C(=O)O)c2)c2ccc(C(=O)NC(C)c3cccc(C(C)(C)C)c3)cc2n1C (mixture of isomers) the IC50 was 3280 nM (PPARG; ligand displacement, TR-FRET).
Cc1nn(-c2cccc(N)c2)c(=O)c2cnc(Nc3ccc(N4CCNCC4)cc3)nc12 gave an IC50 of 1320 nM (cGMP-dependent protein kinase 1 (PRKG1, Homo sapiens, UniProt Q13976); enzyme activity, inhibitor).
O=C(Nc1cccnc1)C(C(F)(F)F)C(F)(F)F has an IC50 of 37000 nM (Rhomboid protease AarA; enzyme activity, inhibitor, fluorescence).
The IC50 of Cc1c(Cc2ccc(OC(C)C(=O)O)cc2)c2ccc(C(=O)N[C@@H](C)c3ccc(C(C)(C)C)cc3)cc2n1C (some centres unmarked) is reported as 3460 nM (PPARG ligand-binding domain; reporter gene, luciferase reporter; HEK293T, Gal4-PPARγ LBD).
With CCCSc1nc(Sc2nc3ccccc3o2)c2nnn(CCO)c2n1 the IC50 was 2540 nM (Lysine-specific histone demethylase 1A (KDM1A, Homo sapiens, UniProt O60341); enzyme activity, inhibitor, fluorescence).
